# Published values gathered from unrelated publications.
# A part holds a random share of what one study measured. Changes are numbered by the printed parent chain.

# Series 1
# Target: CCNF, cyclin fold, Cln2 fusion (human)
# Technique: yeast growth competition, sequencing
# Sample: yeast
# Setting: strong parent motif
# Baseline: not given
# Direction: higher = stronger binding
# Starting sequence: SCAPER docking peptide (human); SNARRSLNFGGST; partner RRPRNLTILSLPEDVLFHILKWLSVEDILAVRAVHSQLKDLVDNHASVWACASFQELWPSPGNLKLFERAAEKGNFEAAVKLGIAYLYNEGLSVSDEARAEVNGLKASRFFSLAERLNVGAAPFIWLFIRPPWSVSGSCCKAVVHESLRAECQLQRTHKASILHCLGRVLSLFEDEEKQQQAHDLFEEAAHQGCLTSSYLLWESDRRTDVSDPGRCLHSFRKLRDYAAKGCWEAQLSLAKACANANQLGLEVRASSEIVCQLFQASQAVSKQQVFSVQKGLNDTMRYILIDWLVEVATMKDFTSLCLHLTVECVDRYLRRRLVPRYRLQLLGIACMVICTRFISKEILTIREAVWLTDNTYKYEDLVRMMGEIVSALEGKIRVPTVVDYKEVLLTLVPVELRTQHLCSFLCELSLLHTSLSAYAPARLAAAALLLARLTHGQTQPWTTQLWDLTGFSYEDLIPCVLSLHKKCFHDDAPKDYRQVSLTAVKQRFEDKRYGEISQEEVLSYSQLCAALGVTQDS
Variant,normalised enrichment score
PNARRSLNFGGST [S1P],8.67
SNARRSLNYGGST [F9Y],2.36
SNARRSLNFGGSS [T13S],7.98
SNARESLNFGGST [R5E],0.249
SNARRNLNFGGST [S6N],5.16
SNAKRSLNFGGST [R4K],6.66
DNARRSLNFGGST [S1D],6.14
SNHRRSLNFGGST [A3H],2.69
SNARRSLNFNGST [G10N],5.85
SNLRRSLNFGGST [A3L],3.61
SNDRRSLNFGGST [A3D],0.22
SNARRSLMFGGST [N8M],7.02
SNAPRSLNFGGST [R4P],1.68
NNARRSLNFGGST [S1N],7.69
SDARRSLNFGGST [N2D],4.28
SNIRRSLNFGGST [A3I],7.06
SNADRSLNFGGST [R4D],0.47
SNARRSLCFGGST [N8C],6.82
SNAMRSLNFGGST [R4M],3.72
SNARRSLNFGGGT [S12G],7.99

# Series 2
# Target: Prothrombin, mature alpha-thrombin (F2, Homo sapiens, UniProt P00734)
# Technique: aptamer microarray, sandwich
# Form: DNA with 2'F-ANA
# Sample: in vitro
# Concentration: 200 nM
# Setting: whole 15-mer aptamer, many near background
# Added: Cy3 exosite-II aptamer, 400 nM
# Direction: higher = stronger binding
# Sequence: GGTTGGTGTGGTTGG
Modification,mean fluorescence intensity [a.u.]
2'F-ANA at 3 5 6 7 8 9 10 14,47.7
2'F-ANA at 4 7 8 9 10 12 13 15,88.7
2'F-ANA at 2 3 4 5 7 10 11 12,54
2'F-ANA at 1 2 5 10 15,49
2'F-ANA at 2 3 4 6 8 10 11 14,161
2'F-ANA at 2 4 6 10 13 15,66.7
2'F-ANA at 3 6 7 8 12 14 15,671
2'F-ANA at 1 2 4 6 9 10 12 13 14 15,44.8
2'F-ANA at 3 4 5 6 8 10 11 12 14,54.7
2'F-ANA at 1 2 5 6 8 13 14,48
2'F-ANA at 1 2 3 4 5 13 15,130
2'F-ANA at 3 6 9 11 15,807
2'F-ANA at 2 3 4 7 8 9 12 14,347
2'F-ANA at 2 3 6 10 13 15,398
2'F-ANA at 1 2 8 9 10 13 14 15,47
2'F-ANA at 1 10 14,45.9
2'F-ANA at 1 2 5 7 8 13 14 15,45.3
2'F-ANA at 1 3 4 8 9 10 14 15,49.8
2'F-ANA at 3 5 7 8 13 14 15,80.9
2'F-ANA at 3 5 6 9 12 15,199
2'F-ANA at 1 2 6 7 8 10 11 12 13 14,56.4
2'F-ANA at 2 5 7 8 10 11 12,47.8
2'F-ANA at 8 9 13 14,198
2'F-ANA at 1 2 3 5 6 8 12,165
2'F-ANA at 1 2 5 6 7 8 10 13,46.1

# Series 3
# Target: UBE2I UBC core domain (UniProt P63279)
# Technique: yeast two-hybrid
# Sample: yeast
# Setting: mostly zero background
# Baseline: not given
# Direction: higher = stronger interaction
# B1: RNF4 RING domain (UniProt P78317); chain TGLRPSGTVSCPICMDGYSEIVQNGRLIVSTECGHVFCSQCLRDSLKNANTCPTCRKKINHKRYHP
# B2: TRIM55 RING domain (UniProt Q9BYV6); chain TMDNLEKQLICPICLEMFTKPVVILPCQHNLCRKCASDIFQASNPYLPTRGGTTMASGGRFRCPSCRHEVVLDRHG
# B3: RFPL2 RING domain (UniProt O75678); chain MAALFQEASSCPVCSDYLEKPMSLECGCAVCLKCINSLQKEPHGEDLLCCCSSMVSRKNKIRR
# B4: NSMCE1 RING domain (UniProt Q8WV22); chain RETYPDAVKICNICHSLLIQGQSCETCGIRMHLPCVAKYFQSNAEPRCPHCNDYWPHEIPKV
# B5: TRIM35 RING domain (UniProt Q9UPQ4); chain PSRSFKEELLCAVCYDPFRDAVTLRCGHNFCRGCVSRCWEVQVSPTCPVCKDRASPADLRT
# B6: TRIM15 RING domain (UniProt Q9C019); chain SLKVVHELPACTLCAGPLEDAVTIPCGHTFCRLCLPALSQMGAQSSGKILLCPLCQEEEQAETPMA
# B7: RNF112 RING domain (UniProt Q9ULX5); chain QPMAPRELPTCSICLERLRDPISLDCGHDFCIRCFSTHRLPGCEPPCCPECRKICKQKRGLR
# B8: PHF7 RING domain (UniProt Q9BWX1); chain IQHGHVGEESCILCCEDLSQQSVENIQSPCCSQAIYHRKCIQKYAHTSAKHFFKCPQCNNRKEFPQEML
# B9: RNF43 RING domain (UniProt Q68DV7); chain SGSSCSSAPVCAICLEEFSEGQELRVISCLHEFHRNCVDPWLHQHRTCPLCMFNITEGDSFS
# B10: TRIM10 RING domain (UniProt Q9UDY6); chain SVTSLADEVNCPICQGTLREPVTIDCGHNFCRACLTRYCEIPGPDLEESPTCPLCKEPFRPGSFRP
Sequence,lacZ reporter activity
FLKKLEQSFMCVCCQELVYQPVTTECFHNVCKDCLQRSFKAQVFSCPACRHDLGQNYIMI (UHRF2 RING domain (UniProt Q96PU4)),0
B1 (RNF4 RING domain),0
KIKDLNEHIVCCLCAGYFVDATTITECLHTFCKSCIVKYLQTSKYCPMCNIKIHETQPLL (PCGF1 RING domain (UniProt Q9BSM1)),0
LKQVSIRENCCSLCCDEVADTQLKPCGHSDLCMDCALQLETCPLCRKEIVSRIRQI (RSPRY1 RING domain (UniProt Q96DX4)),0
B2 (TRIM55 RING domain),0
B3 (RFPL2 RING domain),0
B4 (NSMCE1 RING domain),0
QLQDEEDDSLCRICMDAVIDCVLLECGHMVTCTKCGKRMSECPICRQYVVRAVHVF (RNF34 RING domain (UniProt Q969K3)),0
B5 (TRIM35 RING domain),0
B6 (TRIM15 RING domain),0
ISNDSETLEECMVCSDMKRDTLFGPCGHIATCSLCSPRVKKCLICKEQVQSRTKIE (MIB1 RING domain (UniProt Q86YT6)),0
KRQCSDVDDICSICQAEFQKPILLICQHIFCEECMTLWFNREKTCPLCRTVISDHINKW (RNFT1 RING domain (UniProt Q5M7Z0)),0
B7 (RNF112 RING domain),0
B8 (PHF7 RING domain),0
B9 (RNF43 RING domain),0
B10 (TRIM10 RING domain),0

# Series 4
# Target: RNA binding protein fox-1 homolog 2, RRM domain, GST-SBP tag (RBFOX2, Homo sapiens, UniProt O43251-10, residues 100-194)
# Technique: RNA Bind-n-Seq
# Form: RNA
# Sample: in vitro
# Concentration: 365 nM
# Setting: natural RNA segment, single round, ends assumed
# Baseline: no-protein control
# Direction: higher = stronger binding
# Residues (chain): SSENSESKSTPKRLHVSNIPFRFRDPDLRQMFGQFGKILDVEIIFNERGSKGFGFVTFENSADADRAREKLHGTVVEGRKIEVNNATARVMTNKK
Sequence,RBNS enrichment (R)
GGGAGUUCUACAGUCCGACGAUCCUCACAACAGCCUUCUUACCUCGGGUGAGAGUCAUGAGCACCUUACCAGGCAGGGAGCUUCCCCAGGAUAGUGUGGUGGAGUCAGGACUCACUCCAUCCUGCACUUUACCUGGAAUUCUCGGGUGCCAA,0.44
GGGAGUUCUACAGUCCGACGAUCCAAAGUAACAGAAGGUUAUUUGUAAGAAAGUUAAAGGCUUGUGAACAAAGAAAGCUAAGCUGUUGUACAUAUUUGUAGUUGGCUGUGCAUGGUACAAAUUUAUUAAUAUGUGGAAUUCUCGGGUGCCAA,4.21
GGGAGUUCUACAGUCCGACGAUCCAACAGGGCUCACUCUGAGCUCCACAUCCGCCUCCUUCAAGCAAAGACUUAAAAAGACUGCCCUUGACUCCUUGACACUAUAUCAAGUGCUGUGUAAGAGAGACUGGUCCUGGAAUUCUCGGGUGCCAA,0.355
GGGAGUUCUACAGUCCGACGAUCCAAUUGAUAUCAAAAGGUUUCUCCUGUAAUAUUUUAUCCCUGGACUUGUCAAGUGAAUUCUUUGCAUGUUCAAAACGGAAACCAUUGAUUAGAACUACAUUCUUUACCCCUGGAAUUCUCGGGUGCCAA,1.36
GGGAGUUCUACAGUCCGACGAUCAAAUUUUGGAAUCCUCUAAACAUUUUUGUAUCUUUAAUUGGUUUAUUAUUAAAUAAAUCAUAUAAAAUUCUCAGUGUCUGUUUUCAGGCAAAAGUUUCUUAAAGAAUAAGUGGAAUUCUCGGGUGCCAA,0.604
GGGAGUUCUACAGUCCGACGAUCAGAGUAGGAAUGUCGGGGUUUCCAGUUAGAAAACCUUUAUUUUUGGAAACGGAAUAAAAAUCUCUUAGAAACUUUUGCAGAUAAUUUGAUGUUGGGCAAAUAUAUAUAAUUGGAAUUCUCGGGUGCCAA,0.795
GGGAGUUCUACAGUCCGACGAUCCGAUAGGGUCUUGGCUUUCUACUGUCCUUAUUUCUAGAUUAUUUCCUUGUAAGUUGGAAAGAAUGUUUAUUUAACAGAUCUUGUAUUACAUUUAUUUCCCCCUGAUGUGGUGGAAUUCUCGGGUGCCAA,0.817
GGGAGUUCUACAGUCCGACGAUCUGUGGGAGGGGAAAGGAGAAACAAAGCUAGUCAGAUGUGAAUUGUAUCUGUUGUAAUAAACAUGUUUAAACAAACACAUUUUGUUACUUUUUUUCCCUUCGGCCGGUACAUGGAAUUCUCGGGUGCCAA,2.43
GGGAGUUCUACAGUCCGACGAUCUUCUUUAGGUUUAAAAAAGAGCACUCAUAAUGCAAUAUGUGAAUAAUCAGUGAGGUUGAUUUUUCUUUUUUCCUACCGUUUCAUAGUCUUUGUCUAACUGCUAGUAACCCUGGAAUUCUCGGGUGCCAA,0.464

# A few entries again (series 1):
Variant,normalised enrichment score
SNHRRSLNFGGST [A3H],2.69
SDARRSLNFGGST [N2D],4.28
SNARRNLNFGGST [S6N],5.16
SNADRSLNFGGST [R4D],0.47
PNARRSLNFGGST [S1P],8.67
DNARRSLNFGGST [S1D],6.14
SNARRSLNFGGGT [S12G],7.99
SNLRRSLNFGGST [A3L],3.61
